Measured values gathered from unrelated publications.
Numbered parts are unrelated; each lists some results of a single study.
Sequence of UniProt Q9C0B0 (30-357, looked up): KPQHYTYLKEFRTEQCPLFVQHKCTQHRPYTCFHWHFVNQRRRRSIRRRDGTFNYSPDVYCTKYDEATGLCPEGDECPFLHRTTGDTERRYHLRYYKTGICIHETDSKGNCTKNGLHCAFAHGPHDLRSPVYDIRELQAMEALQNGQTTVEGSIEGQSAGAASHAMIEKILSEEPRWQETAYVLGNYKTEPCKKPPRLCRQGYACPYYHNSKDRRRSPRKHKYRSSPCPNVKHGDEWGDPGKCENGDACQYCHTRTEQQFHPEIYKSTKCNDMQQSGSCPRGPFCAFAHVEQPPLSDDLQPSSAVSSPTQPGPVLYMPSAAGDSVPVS

Sample 1
Target: Interferon regulatory factor 5, full length, phosphomimetic (IRF5, Homo sapiens, UniProt Q13568-2, residues 1-514, S451D/S453D/S456D/S462D)
Technique: protein-binding microarray
Molecule type: double-stranded DNA, one strand shown
Sample: in vitro
Concentration: 940 nM top
Notes: 60-bp whole probe
Together with: salmon DNA 0.4 mg/ml
Baseline: random background probes
Direction: higher = stronger binding
Quantity: fitted relative affinity
All sequences stand within: GCCTAGCAC … GTCTTGATTCGCTTGACGCTGCTG
GTAGATATCGGGTATCGATTAGTGCTA: 2.93 z-score
TTAGGACTGGGTCTCGGTGAGTGCTAG: 0.76 z-score
TTAGGTTTCGGTATCAGTTAGTGCTAG: 14.4 z-score
GACGATATCAGACTGGAGGCGTGCTAG: -0.456 z-score
AGATATTTAGAACTTCTCCACGTGCTA: 0.0433 z-score

Sample 2
Target: Sal-like protein 4, full length isoform A (SALL4, Homo sapiens, UniProt Q9UJQ4, residues 1-1053)
Sequence of UniProt Q9UJQ4 (whole entry, looked up): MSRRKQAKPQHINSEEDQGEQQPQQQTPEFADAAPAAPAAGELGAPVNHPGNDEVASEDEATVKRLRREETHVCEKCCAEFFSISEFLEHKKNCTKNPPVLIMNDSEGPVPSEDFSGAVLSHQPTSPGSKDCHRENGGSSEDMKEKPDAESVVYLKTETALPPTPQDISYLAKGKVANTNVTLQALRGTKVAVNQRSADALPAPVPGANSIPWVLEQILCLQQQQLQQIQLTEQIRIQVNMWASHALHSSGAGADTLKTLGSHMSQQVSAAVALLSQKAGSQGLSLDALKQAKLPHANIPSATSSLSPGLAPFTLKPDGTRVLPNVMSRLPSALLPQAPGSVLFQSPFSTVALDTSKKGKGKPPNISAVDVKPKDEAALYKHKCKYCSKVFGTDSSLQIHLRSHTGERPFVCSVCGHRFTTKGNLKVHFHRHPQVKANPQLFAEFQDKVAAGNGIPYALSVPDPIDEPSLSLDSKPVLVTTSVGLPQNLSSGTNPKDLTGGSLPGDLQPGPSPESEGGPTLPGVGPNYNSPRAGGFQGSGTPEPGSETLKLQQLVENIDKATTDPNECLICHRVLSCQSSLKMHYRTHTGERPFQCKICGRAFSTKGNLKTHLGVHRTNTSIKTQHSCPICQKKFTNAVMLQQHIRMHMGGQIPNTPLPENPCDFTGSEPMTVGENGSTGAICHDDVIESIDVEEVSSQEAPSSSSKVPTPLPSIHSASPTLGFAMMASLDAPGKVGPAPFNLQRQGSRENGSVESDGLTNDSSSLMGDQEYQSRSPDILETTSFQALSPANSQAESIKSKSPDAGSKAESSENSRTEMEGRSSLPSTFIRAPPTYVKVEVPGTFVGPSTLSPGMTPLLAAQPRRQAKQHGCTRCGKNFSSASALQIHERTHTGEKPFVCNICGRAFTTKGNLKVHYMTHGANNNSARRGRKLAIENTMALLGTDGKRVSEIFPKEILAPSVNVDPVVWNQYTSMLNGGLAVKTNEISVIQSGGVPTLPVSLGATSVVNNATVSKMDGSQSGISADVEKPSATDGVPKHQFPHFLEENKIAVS
Technique: universal PBM
Molecule type: double-stranded DNA, one strand shown
Sample: in vitro
Concentration: 600 nM
Notes: 8-mer, flanks averaged, mean of replicates
Direction: higher = stronger binding
Quantity: E-score
CGAGATTA: 0.163
GCGCAGCC: -0.398
AAATAATA: 0.424
CGTCCGAC: -0.244
CTGTGAAG: -0.0266
CATGTCTA: 0.182
GGGTCGAC: -0.365
CCACAAAC: 0.0633
CAGAGGGC: -0.221

Sample 3
Target: Centromere-binding protein 1, full length, N-terminal tag (CBF1, Saccharomyces cerevisiae, UniProt P17106, residues 1-351)
Sequence of UniProt P17106 (whole entry, looked up): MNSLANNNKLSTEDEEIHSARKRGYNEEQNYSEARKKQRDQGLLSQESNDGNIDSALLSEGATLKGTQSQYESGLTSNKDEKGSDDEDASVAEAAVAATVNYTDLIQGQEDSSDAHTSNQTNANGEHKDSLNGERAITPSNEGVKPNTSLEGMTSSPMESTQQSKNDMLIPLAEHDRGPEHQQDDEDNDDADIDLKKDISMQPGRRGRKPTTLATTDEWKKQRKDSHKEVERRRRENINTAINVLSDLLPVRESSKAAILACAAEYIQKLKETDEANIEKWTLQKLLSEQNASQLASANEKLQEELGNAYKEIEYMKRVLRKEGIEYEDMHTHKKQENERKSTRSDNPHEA
Technique: protein-binding microarray
Molecule type: double-stranded DNA, one strand shown
Sample: in vitro
Concentration: 0.8 µM
Notes: whole 60-bp probe, no competitor
Direction: higher = stronger binding
Quantity: fluorescence intensity
All sequences stand within: … GTCTTGATTCGCTTGACGCTGCTG
GAAATCGCAACTTTTATCGTGACCTACGACCAGTAG: 640 a.u.
TGTACGAAGCTATATCATGCCGTTATAGTAGTTAGG: 517 a.u.
GAAATGCTTTATTGACACGTGAGAAGGGAAACTTAG: 4270 a.u.
CTATACAAATAAATACACGAGCGATGTCGGACTTTC: 537 a.u.
CTAGTTTCCACGTACCACGCAAAACTTGTCTCATTC: 528 a.u.

Further values, each from its own experiment
PhoQ, residues 284 288 289 292 302 303 SQSLSM
fold induction (PhoP, residues 12 14 15 18 19 NHTVL (Escherichia coli, UniProt P23836); Sort-seq, item: YFP reporter; E. coli; PhoQ-PhoP variant library, together with: 10 µM Mg2+; baseline: high Mg2+ state, higher = stronger signaling): 30.2

GGGAGUUCUACAGUCCGACGAUCCAGUUUGUAUGUACAUUAUUCAUAUUCCUCUCUGUUGUGUUUCGGGGGGAAAAGACAUUUCCGCCUUUUUUAAAAGUUACUGAUUUAAUUUCAUGUUAUUUGGUUGCAUGAAGUUGCCCUCAACAGAGGAUUGAGCAUCA
bound/input enrichment (RING finger protein unkempt homolog, zinc fingers 1-6, SBP tag (UNK, Homo sapiens, UniProt Q9C0B0, residues 30-357); RNA Bind-n-Seq; RNA, in vitro; 100 nM, RNA with constant flanks, ends assumed; baseline: input RNA pool, higher = stronger binding): 0.448 ratio

A few entries again (sample 2):
CATGTCTA: 0.182
CCACAAAC: 0.0633
GCGCAGCC: -0.398
